{"data": "Measurements of several laboratories", "note": "A part holds a random share of what one study measured.", "sequence of UniProt Q16513 (whole entry, looked up)": "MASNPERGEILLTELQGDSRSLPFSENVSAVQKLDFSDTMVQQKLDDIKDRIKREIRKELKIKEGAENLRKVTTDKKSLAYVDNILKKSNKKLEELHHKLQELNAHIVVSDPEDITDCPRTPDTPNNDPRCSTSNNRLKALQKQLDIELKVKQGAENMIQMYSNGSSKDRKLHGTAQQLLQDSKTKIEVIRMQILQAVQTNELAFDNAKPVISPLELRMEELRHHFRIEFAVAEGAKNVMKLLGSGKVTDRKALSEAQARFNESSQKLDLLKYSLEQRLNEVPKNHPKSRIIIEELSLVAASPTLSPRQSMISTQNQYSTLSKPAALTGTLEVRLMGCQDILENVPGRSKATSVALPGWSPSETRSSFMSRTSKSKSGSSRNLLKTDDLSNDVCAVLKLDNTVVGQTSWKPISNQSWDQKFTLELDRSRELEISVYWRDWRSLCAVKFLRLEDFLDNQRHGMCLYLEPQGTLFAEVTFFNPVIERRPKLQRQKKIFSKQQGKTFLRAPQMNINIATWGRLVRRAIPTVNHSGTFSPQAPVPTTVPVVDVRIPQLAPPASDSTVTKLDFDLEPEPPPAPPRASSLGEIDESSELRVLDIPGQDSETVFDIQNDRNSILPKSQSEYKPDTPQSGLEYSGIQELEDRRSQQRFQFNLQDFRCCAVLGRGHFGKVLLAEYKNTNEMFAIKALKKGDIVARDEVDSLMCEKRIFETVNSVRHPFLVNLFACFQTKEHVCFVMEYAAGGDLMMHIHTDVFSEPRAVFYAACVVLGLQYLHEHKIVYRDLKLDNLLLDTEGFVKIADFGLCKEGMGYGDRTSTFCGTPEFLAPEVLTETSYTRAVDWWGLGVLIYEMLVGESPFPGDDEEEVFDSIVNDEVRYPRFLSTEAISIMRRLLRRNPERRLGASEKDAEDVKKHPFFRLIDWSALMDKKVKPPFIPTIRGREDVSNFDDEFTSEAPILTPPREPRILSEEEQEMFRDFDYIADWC", "sequence of UniProt Q92519 (whole entry, looked up)": "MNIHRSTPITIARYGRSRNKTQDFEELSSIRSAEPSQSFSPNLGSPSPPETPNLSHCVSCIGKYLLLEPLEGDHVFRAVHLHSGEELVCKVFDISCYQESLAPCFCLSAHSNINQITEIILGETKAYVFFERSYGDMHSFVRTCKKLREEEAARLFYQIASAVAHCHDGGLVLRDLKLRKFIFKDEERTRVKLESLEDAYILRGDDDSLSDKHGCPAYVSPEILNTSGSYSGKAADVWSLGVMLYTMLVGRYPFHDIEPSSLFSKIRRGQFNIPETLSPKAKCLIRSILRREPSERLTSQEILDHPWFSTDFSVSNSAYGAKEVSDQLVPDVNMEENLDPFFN", "sequence of UniProt P08069 (whole entry, looked up)": "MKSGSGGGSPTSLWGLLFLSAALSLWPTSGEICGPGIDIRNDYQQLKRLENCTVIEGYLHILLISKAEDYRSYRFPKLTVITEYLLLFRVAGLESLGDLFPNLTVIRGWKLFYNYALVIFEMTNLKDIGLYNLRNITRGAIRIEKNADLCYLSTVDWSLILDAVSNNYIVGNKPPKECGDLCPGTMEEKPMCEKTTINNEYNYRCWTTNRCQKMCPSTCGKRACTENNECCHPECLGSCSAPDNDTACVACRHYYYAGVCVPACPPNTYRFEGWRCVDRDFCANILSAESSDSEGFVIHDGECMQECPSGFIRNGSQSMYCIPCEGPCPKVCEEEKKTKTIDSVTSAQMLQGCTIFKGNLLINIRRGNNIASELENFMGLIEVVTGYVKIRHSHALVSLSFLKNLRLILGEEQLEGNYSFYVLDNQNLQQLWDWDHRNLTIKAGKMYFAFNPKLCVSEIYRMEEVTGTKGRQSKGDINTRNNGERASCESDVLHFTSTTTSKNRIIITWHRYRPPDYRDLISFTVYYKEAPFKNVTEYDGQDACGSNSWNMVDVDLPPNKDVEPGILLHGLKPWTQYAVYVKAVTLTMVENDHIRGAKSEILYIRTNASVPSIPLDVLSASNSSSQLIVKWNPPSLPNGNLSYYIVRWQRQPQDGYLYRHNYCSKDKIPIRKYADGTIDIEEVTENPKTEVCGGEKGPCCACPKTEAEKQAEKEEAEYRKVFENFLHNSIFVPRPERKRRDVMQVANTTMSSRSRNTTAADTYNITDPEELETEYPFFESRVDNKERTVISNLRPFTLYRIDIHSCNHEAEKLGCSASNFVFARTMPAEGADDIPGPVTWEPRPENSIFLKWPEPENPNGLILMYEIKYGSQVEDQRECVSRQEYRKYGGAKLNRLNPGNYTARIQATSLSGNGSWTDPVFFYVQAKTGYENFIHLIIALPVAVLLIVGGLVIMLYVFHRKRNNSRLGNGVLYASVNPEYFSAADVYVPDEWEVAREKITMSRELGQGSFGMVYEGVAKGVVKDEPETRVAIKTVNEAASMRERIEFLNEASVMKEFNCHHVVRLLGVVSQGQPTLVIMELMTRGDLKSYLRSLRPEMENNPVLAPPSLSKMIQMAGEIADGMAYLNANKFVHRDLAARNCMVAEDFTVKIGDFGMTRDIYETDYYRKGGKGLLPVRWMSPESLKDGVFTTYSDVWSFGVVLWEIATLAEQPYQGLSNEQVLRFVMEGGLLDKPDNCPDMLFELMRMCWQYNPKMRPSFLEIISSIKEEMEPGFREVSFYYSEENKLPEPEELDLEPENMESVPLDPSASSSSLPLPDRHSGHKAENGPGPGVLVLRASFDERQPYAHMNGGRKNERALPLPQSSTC", "sequence of UniProt P22455 (whole entry, looked up)": "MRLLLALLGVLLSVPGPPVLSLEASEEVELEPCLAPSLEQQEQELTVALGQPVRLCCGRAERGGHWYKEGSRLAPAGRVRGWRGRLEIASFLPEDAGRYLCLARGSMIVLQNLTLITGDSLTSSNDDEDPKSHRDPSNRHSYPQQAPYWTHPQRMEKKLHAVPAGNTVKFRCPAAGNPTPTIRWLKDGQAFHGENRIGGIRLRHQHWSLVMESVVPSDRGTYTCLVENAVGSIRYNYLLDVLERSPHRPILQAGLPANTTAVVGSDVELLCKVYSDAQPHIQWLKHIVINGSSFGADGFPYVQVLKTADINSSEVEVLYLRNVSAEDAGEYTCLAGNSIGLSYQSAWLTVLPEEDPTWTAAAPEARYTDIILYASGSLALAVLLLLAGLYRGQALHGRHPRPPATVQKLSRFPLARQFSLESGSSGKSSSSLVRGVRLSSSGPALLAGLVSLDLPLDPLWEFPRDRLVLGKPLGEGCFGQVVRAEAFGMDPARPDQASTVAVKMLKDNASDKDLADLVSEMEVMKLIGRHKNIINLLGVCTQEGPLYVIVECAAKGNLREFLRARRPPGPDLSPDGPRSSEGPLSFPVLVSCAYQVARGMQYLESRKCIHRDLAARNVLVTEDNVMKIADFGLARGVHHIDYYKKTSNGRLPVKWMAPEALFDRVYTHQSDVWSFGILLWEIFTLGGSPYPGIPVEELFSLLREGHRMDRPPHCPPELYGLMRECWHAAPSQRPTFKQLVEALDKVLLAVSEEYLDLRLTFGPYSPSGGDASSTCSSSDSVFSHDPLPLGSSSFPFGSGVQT", "sequence of UniProt P35462 (whole entry, looked up)": "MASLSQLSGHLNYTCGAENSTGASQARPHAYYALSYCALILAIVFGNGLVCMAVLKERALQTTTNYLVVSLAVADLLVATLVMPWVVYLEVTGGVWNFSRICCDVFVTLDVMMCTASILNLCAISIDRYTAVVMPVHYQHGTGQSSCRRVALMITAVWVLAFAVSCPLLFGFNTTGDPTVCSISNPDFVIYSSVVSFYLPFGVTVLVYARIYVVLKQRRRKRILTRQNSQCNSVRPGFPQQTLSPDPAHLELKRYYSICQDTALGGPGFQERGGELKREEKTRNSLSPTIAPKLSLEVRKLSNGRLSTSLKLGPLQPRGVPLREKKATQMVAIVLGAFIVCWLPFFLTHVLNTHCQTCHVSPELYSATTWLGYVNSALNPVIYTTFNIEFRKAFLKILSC"}
{"data": "Sample 1", "target": "Calcium/calmodulin-dependent protein kinase type II subunit alpha (CAMK2A, Homo sapiens, UniProt Q9UQM7)", "observed": "enzyme activity", "action": "inhibitor", "concentration": "10 µM", "sequence of UniProt Q9UQM7 (whole entry, looked up)": "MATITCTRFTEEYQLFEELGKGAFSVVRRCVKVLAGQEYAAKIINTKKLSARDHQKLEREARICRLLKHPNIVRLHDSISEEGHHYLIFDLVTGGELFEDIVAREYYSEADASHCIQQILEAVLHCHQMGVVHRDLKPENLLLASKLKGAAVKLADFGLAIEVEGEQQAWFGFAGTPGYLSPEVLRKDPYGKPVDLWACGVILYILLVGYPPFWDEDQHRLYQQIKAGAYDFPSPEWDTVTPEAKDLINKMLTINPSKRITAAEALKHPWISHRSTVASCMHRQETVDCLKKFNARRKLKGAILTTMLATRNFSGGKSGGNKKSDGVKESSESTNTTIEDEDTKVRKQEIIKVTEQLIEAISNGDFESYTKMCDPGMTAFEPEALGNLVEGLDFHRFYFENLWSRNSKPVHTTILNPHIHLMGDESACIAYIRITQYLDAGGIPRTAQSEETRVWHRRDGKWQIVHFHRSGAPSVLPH"}
{"Compound": "C=C[C@]12CN(C)[C@@H]3[C@H]4CO[C@H](C[C@H]41)[C@]1(C(=O)Nc4ccccc41)[C@@H]32", "inhibition [%]": 1}
{"Compound": "C=C(C)[C@H]1CN[C@H](C(=O)O)[C@H]1CC(=O)O", "inhibition [%]": 25}
{"Compound": "COc1ccccc1OC", "inhibition [%]": -32}
{"Compound": "C[C@H]1CCC2N(C1)C[C@H]1C3CC4[C@@H](CC(=O)C5C[C@@H](O)CC[C@@]54C)C3CCC1[C@]2(C)O (stereo partly shown)", "inhibition [%]": -45}
{"Compound": "CC(=O)OC[C@]12[C@H](OC(C)=O)[C@H](OC(C)=O)[C@@H]3[C@@H](OC(C)=O)[C@@]14O[C@@]3(C)COC(=O)c1cccnc1CC[C@H](C)C(=O)O[C@@H]([C@H](OC(=O)c1ccccc1)[C@@H]2OC(C)=O)[C@]4(C)O", "inhibition [%]": -6}
{"Compound": "CC[C@@H](C)[C@@H]1NC(=O)[C@@H]2CCCN2C(=O)[C@H](Cc2ccccc2)N(C)C(=O)[C@H](Cc2ccccc2)NC(=O)[C@H](C(C)C)N(C)C(=O)[C@@H]([C@H](C)CC)OC(=O)[C@H](C(C)(C)O)N(C)C(=O)[C@H](CC(C)C)NC(=O)[C@H](C(C)C)N(C)C1=O", "inhibition [%]": -34}
{"Compound": "COc1cc2c(cc1O)-c1c(OC)c(O)cc3c1[C@H](C2)NCC3", "inhibition [%]": -24}
{"data": "Sample 2", "Structure (SMILES)": "COC(=O)c1cc(N(C)C(=O)c2ccn3ncc(-c4ccc(C(=O)O)cc4)c3c2)ccc1Cl"}
{"target": "TGF-beta receptor type-1 (TGFBR1, Homo sapiens, UniProt P36897)", "observed": "enzyme activity", "action": "inhibitor", "IC50": "> 30 µM"}
{"target": "Tribbles homolog 2 (TRIB2, Homo sapiens, UniProt Q92519)", "observed": "enzyme activity", "action": "inhibitor", "IC50": "4.61 µM"}
{"target": "Protein kinase C alpha type (PRKCA, Homo sapiens, UniProt P17252)", "observed": "enzyme activity", "action": "inhibitor", "IC50": "> 30 µM"}
{"target": "Casein kinase I isoform delta (CSNK1D, Homo sapiens, UniProt P48730)", "observed": "enzyme activity", "action": "inhibitor", "IC50": "> 30 µM"}
{"target": "Cyclin-dependent kinase 4 (CDK4, Homo sapiens, UniProt P11802)", "observed": "enzyme activity", "action": "inhibitor", "IC50": "> 30 µM"}
{"target": "Tyrosine-protein kinase JAK3 (JAK3, Homo sapiens, UniProt P52333)", "observed": "enzyme activity", "action": "inhibitor", "IC50": "16.5 µM"}
{"target": "Insulin-like growth factor 1 receptor (IGF1R, Homo sapiens, UniProt P08069)", "observed": "enzyme activity", "action": "inhibitor", "IC50": "> 30 µM"}
{"target": "Serine/threonine-protein kinase N2 (PKN2, Homo sapiens, UniProt Q16513)", "observed": "enzyme activity", "action": "inhibitor", "IC50": "> 30 µM"}
{"target": "Non-receptor tyrosine-protein kinase TYK2 (TYK2, Homo sapiens, UniProt P29597)", "observed": "enzyme activity", "action": "inhibitor", "IC50": "23.5 µM"}
{"target": "STE20-like serine/threonine-protein kinase (SLK, Homo sapiens, UniProt Q9H2G2)", "observed": "enzyme activity", "action": "inhibitor", "IC50": "11.5 µM"}
{"target": "5'-AMP-activated protein kinase catalytic subunit alpha-2 (PRKAA2, Homo sapiens, UniProt P54646)", "observed": "enzyme activity", "action": "inhibitor", "IC50": "4.7 µM"}
{"target": "D(3) dopamine receptor (DRD3, Homo sapiens, UniProt P35462)", "observed": "cell-free assay", "IC50": "> 30 µM"}
{"target": "Rhodopsin kinase GRK1 (GRK1, Homo sapiens, UniProt Q15835)", "observed": "enzyme activity", "action": "inhibitor", "IC50": "> 30 µM"}
{"target": "RAF proto-oncogene serine/threonine-protein kinase (RAF1, Homo sapiens, UniProt P04049)", "observed": "enzyme activity", "action": "inhibitor", "IC50": "> 30 µM"}
{"target": "Aurora kinase A (AURKA, Homo sapiens, UniProt O14965)", "observed": "enzyme activity", "action": "inhibitor", "IC50": "10 µM"}
{"target": "Mitogen-activated protein kinase kinase kinase 2 (MAP3K2, Homo sapiens, UniProt Q9Y2U5)", "observed": "enzyme activity", "action": "inhibitor", "IC50": "> 30 µM"}
{"target": "Fibroblast growth factor receptor 4 (FGFR4, Homo sapiens, UniProt P22455)", "observed": "enzyme activity", "action": "inhibitor", "IC50": "> 30 µM"}
{"data": "Sample 3", "observed": "AlphaScreen signal", "method": "AlphaScreen counter screen", "medium": "His6 peptide without bromodomain", "concentration": "50 µM", "notes": "assay interference check"}
{"Compound": "COC(=O)C1(O)CC2OC1(C)n1c3ccccc3c3c4c(c5c6ccccc6n2c5c31)C(=O)NC4 (stereo not shown)", "inhibition": "27.6%"}
{"Compound": "Cc1ccc(NC=C2C(=O)NC(=O)N(C)C2=O)cc1", "inhibition": "10.1%"}
{"Compound": "COc1ccc2c(c1)/C(=C/c1cnc[nH]1)C(=O)N2", "inhibition": "30.6%"}
{"data": "Sample 4", "cell line": "mouse MPNST tumor cells", "method": "high-content immunofluorescence imaging", "refers to": "nuclear SOX9", "concentration": "10 µM", "time": "12 h", "notes": "mean of 2 replicates", "relative to": "DMSO control", "direction": "higher = more nuclear SOX9"}
{"Compound": "COC(=O)C=CC(=O)NC1CCC2(O)C3Cc4ccc(O)c5c4C2(CCN3CC2CC2)C1O5 (stereo not shown)", "nuclear SOX9 intensity": "125 % of DMSO"}
{"Compound": "CN(C)C1C(=O)C(C(N)=O)=C(O)C2(O)C(=O)C3=C(O)c4c(O)cccc4C(C)(O)C3CC12 (stereo not shown)", "nuclear SOX9 intensity": "101 % of DMSO"}
{"Compound": "CNCC(O)c1ccc(O)cc1 (racemic)", "nuclear SOX9 intensity": "97.4 % of DMSO"}
{"Compound": "CC(=O)NCCc1c[nH]c2ccccc12", "nuclear SOX9 intensity": "98.8 % of DMSO"}
{"Compound": "c1ccc(CCCCN2CCC(c3ccccc3)CC2)cc1", "nuclear SOX9 intensity": "167 % of DMSO"}
{"Compound": "C#C[C@]1(O)CC[C@H]2[C@@H]3CCC4=CC(=O)CC[C@]4(C)[C@H]3CC[C@@]21C", "nuclear SOX9 intensity": "91.5 % of DMSO"}
{"data": "Other studies, line by line"}
{"Compound": "C[N+]12CCC(CC1)C(OC(=O)C(O)(c1ccccc1)c1ccccc1)C2 (stereo not shown)", "tested on": "A-375", "setting": "100 µM, 36 h", "quantity": "viability", "value": "117%"}
{"Compound": "CNCC[C@H](Oc1cccc2ccccc12)c1cccs1", "tested on": "Plasmodium berghei", "assay": "liver stage infection", "test system": "Huh-7", "setting": "10 µM, 24 h, GFP-expressing sporozoites", "quantity": "remaining activity", "value": "51.9%"}
{"Compound": "Cc1ccc(/N=C/N(C)/C=N/c2ccc(C)cc2C)c(C)c1", "tested on": "A-375", "setting": "100 µM, 36 h", "quantity": "viability", "value": "33.4%"}
{"Compound": "O=C1CCC(N2Cc3c(ccc4c3OCC43CCCN(Cc4ccccc4)CC3)C2=O)C(=O)N1 (stereo not shown)", "tested on": "CRBN/Zinc finger protein Helios (Homo sapiens, UniProt Q96SW2+Q9UKS7)", "assay": "degrader, HiBiT", "test system": "HEK293", "setting": "0.1694 nM", "quantity": "protein remaining", "value": "104%"}
{"note": "Repeated from above (other studies, line by line):"}
{"Compound": "Cc1ccc(/N=C/N(C)/C=N/c2ccc(C)cc2C)c(C)c1", "tested on": "A-375", "setting": "100 µM, 36 h", "quantity": "viability", "value": "33.4%"}
{"Compound": "O=C1CCC(N2Cc3c(ccc4c3OCC43CCCN(Cc4ccccc4)CC3)C2=O)C(=O)N1 (stereo not shown)", "tested on": "CRBN/Zinc finger protein Helios (Homo sapiens, UniProt Q96SW2+Q9UKS7)", "assay": "degrader, HiBiT", "test system": "HEK293", "setting": "0.1694 nM", "quantity": "protein remaining", "value": "104%"}
